Assay results pooled from the literature.
Lines come from different studies, so protocols differ.
UniProt C3KDW3, sequence (whole entry, looked up): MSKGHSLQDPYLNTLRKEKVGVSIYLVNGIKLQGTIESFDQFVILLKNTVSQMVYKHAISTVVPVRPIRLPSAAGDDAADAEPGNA

`GACUACGGCAACAACAUCCGCCAGA (ssRNA)`: binding “binds” (hfq full length assumed (Pseudomonas fluorescens, UniProt C3KDW3); EMSA; RNA).
With `UNC13D D127N/D133N/D941N/D947N` the signal was 0.43% (PTK2; co-IP; HEK293; with EGTA, read off a plot; higher = more binding).
`TATATCATGCTATACCTATTCTTTGTGGTATAATTGCAAG (dsDNA)` — result for binding: “binds” (Aspartate aminotransferase (Streptococcus pneumoniae, UniProt Q8DNN5); EMSA; double-stranded DNA, one strand shown; two complexes).
For `TGCCGCTGGGTAGGCCAACCGGACGAGGTCTTCAGGCAT (dsDNA)`, binding read “binds” (rccR (Pseudomonas aeruginosa, UniProt A0A071KWR3); EMSA; double-stranded DNA, one strand shown; added: KDPG 8 µM).

A few entries again:
For `TGCCGCTGGGTAGGCCAACCGGACGAGGTCTTCAGGCAT (dsDNA)`, binding read “binds” (rccR (Pseudomonas aeruginosa, UniProt A0A071KWR3); EMSA; double-stranded DNA, one strand shown; added: KDPG 8 µM).
